{"data": "Measurements gathered from unrelated publications", "note": "Each numbered part is a random draw from the data of one study; scales do not carry over between parts.", "chain of UniProt P52564 (whole entry, looked up)": "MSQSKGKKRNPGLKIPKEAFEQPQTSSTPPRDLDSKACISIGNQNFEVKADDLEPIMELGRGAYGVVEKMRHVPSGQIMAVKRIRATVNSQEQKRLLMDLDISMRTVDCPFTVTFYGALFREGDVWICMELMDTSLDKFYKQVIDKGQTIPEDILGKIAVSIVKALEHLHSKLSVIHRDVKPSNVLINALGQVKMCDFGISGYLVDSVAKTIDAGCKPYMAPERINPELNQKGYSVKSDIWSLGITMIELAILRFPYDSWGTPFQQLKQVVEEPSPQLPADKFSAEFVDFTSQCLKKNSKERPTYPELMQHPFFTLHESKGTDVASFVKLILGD"}
{"data": "Series 1", "target": "Sox, HMG box (Pigoraptor chileana)", "method": "Spec-seq", "form": "double-stranded DNA, one strand shown", "matrix": "in vitro", "concentration": "not given", "setting": "whole probe, mean of replicates", "relative to": "not given", "reading": "lower = stronger binding", "shared flanks, not repeated": "GAGTCGTCTCGTCAGCAC … CCGTAGAGCACTCAGGTC", "Target sequence (chain)": "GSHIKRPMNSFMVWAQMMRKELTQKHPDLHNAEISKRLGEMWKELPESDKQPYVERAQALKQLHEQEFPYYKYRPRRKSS"}
{"Sequence": "CATAGGC", "relative binding energy [ln ratio]": -0.37}
{"Sequence": "ATGCGTT", "relative binding energy [ln ratio]": 0.397}
{"Sequence": "GAGAGTT", "relative binding energy [ln ratio]": 1.44}
{"Sequence": "GTCGGTT", "relative binding energy [ln ratio]": 1.07}
{"Sequence": "CATCAGT", "relative binding energy [ln ratio]": 0.105}
{"Sequence": "CATCTGA", "relative binding energy [ln ratio]": 0.763}
{"Sequence": "CATGTAG", "relative binding energy [ln ratio]": 0.512}
{"Sequence": "CATTGAC", "relative binding energy [ln ratio]": -0.42}
{"data": "Series 2", "target": "Histone acetyltransferase KAT6A, winged helix 1, GST fusion (KAT6A, Homo sapiens, UniProt Q92794, residues 1-85)", "method": "protein binding microarray", "form": "double-stranded DNA, one strand shown", "matrix": "in vitro", "concentration": "not given", "setting": "8-mer, flanks averaged, mean of 2 arrays, mostly near background", "relative to": "not given", "reading": "higher = stronger binding", "Residues (chain)": "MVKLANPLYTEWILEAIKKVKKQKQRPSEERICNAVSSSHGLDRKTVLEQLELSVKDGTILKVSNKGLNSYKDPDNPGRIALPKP"}
{"Sequence": "CACAGACG", "E-score": 0.015}
{"Sequence": "AACTGTGT", "E-score": -0.15}
{"Sequence": "GTGTCTGA", "E-score": -0.0373}
{"Sequence": "ATGTATTA", "E-score": -0.148}
{"Sequence": "GACAAGGA", "E-score": -0.194}
{"Sequence": "GAAGGAGA", "E-score": -0.076}
{"Sequence": "CAGATGTA", "E-score": 0.0133}
{"Sequence": "CACGTCCC", "E-score": -0.0752}
{"data": "Series 3", "target": "RNA binding protein fox-1 homolog 2, RRM domain, GST-SBP tag (RBFOX2, Homo sapiens, UniProt O43251-10, residues 100-194)", "method": "RNA Bind-n-Seq", "form": "RNA", "matrix": "in vitro", "concentration": "365 nM", "setting": "natural RNA segment, single round, ends assumed", "relative to": "no-protein control", "reading": "higher = stronger binding", "Target sequence (chain)": "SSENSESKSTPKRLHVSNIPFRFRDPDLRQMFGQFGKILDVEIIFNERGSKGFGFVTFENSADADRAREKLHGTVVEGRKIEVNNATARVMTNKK"}
{"Sequence": "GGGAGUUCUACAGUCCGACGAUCUCUUUAAAGUGUAUAUUAGCCACUUAGCAAUCUCUAUAUUCUUUCAAGUAACCAAGCUGUUGACUUUCUUACUACUUGCAGUAGCCUGUCCCCAACUUUUCCAUCCAGUGUGGAAUUCUCGGGUGCCAA", "RBNS enrichment (R)": 0.219}
{"Sequence": "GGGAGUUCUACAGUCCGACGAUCCACCCUCCACACCCCAAAGAGAAAUCCCUUCAAAACAGUUUGGGGCCUGUAGCCAGGGUGGGAGGGGCUUGUGCCCCACAGCCUCACAACCCUUGGGGUCAGUGCACCAAUGGAAUUCUCGGGUGCCAA", "RBNS enrichment (R)": 0.354}
{"Sequence": "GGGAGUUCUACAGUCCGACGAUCAGUGCCAAUGGUGGGAUCAGCAGGAAGACUGAUGUUGGAGACAAUCGGGUGCGGAUUGGUGCUAAUUUAAACAAAAGGGCCUCUGGGGUCUUUUGUUCAAUAUUUUACAAUGGAAUUCUCGGGUGCCAA", "RBNS enrichment (R)": 0.81}
{"Sequence": "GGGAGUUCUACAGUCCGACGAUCCCAUGGAGGUUAUUGCCUGCGUCCCAGAAUCAAGCAGUUGGGGUGCAGGAGGCUGACAUAGUGAUAUUGAGUAGUGAUUAGGAAAGGGGCGGUGUUGAACUGUUUGUGUAUGGAAUUCUCGGGUGCCAA", "RBNS enrichment (R)": 1.37}
{"Sequence": "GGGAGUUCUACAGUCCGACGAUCAUGGCACACCUAGAUUCUUCUGGAAACAUUCUGGAACCUAUCUGAUGACCAGUAUUUCCAGAGUAAGGUGGAAGAUGAGAAAGAGAUAAGUUACCAAGAGAAGCUGGAGGUGGAAUUCUCGGGUGCCAA", "RBNS enrichment (R)": 0.409}
{"Sequence": "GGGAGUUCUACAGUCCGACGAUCAUCCUGUGGGCAGACACCUUACUCUGGAGCCAUUCCACCUGCCUGUCACCUGGGUCUGAGAAGCCUUCACUUCCACUUGCCAGAGGGAAGAACUGGCCACCCAUCUGUCAUGGAAUUCUCGGGUGCCAA", "RBNS enrichment (R)": 0.638}
{"Sequence": "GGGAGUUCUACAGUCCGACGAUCGUCAUACCGUGACAGCCCGCAGGAUCAGGUGACUUCUAGCAGAGACCCUGGUUUUUUUCCUGUGCCCACUCCGGCUUGUCCUCAUCUCUACCCAUCCCCUGAUGCCCAGGUGGAAUUCUCGGGUGCCAA", "RBNS enrichment (R)": 0.382}
{"Sequence": "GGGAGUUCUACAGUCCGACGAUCUGCUGGGUUUUCUGUUGUUUGAGUGUGUUAGAGAAAUUUGAAUGUUUUUGUCAGUUACGAGUCAGCCGUAAUUAGAUUAGUUUAAGGACAGGUCAGGAUUAGAGAAGAGUUGGAAUUCUCGGGUGCCAA", "RBNS enrichment (R)": 6.26}
{"data": "Mixed results"}
{"SMILES": "N#CC(c1ccnc(NCCc2cccnc2)n1)c1nc2ccccc2s1 (stereo not shown)", "target": "Dual specificity mitogen-activated protein kinase kinase 6 (MAP2K6, Homo sapiens, UniProt P52564)", "test": "enzyme activity, inhibitor", "conditions": "0.5 µM", "how to read": "relative to: control", "measurement": "remaining activity", "result": "92.5%"}
{"note": "Excerpt of the above (series 1):"}
{"Sequence": "CATGTAG", "relative binding energy [ln ratio]": 0.512}
{"Sequence": "CATTGAC", "relative binding energy [ln ratio]": -0.42}
